Assay results of several laboratories.
Each numbered part is a random draw from the data of one study; scales do not carry over between parts. Substitutions count along the parent as printed.

Study 1 — target: CCND1, cyclin fold, Cln2 fusion (human); technique: yeast growth competition, sequencing; sample: yeast; notes: weak parent motif; baseline: not given; direction: higher = stronger binding
Parent: CDC25A docking peptide (human); PPHRRRLLFACSP
`PPIRRRLLFACSP [H3I]`: “normalised enrichment score” 0.0965.
`PPHRMRLLFACSP [R5M]`: “normalised enrichment score” 0.767.
`PPHMRRLLFACSP [R4M]`: “normalised enrichment score” -0.0195.
`PPHRRRHLFACSP [L7H]` — result for “normalised enrichment score”: -0.11.
`PPHRRRLLFGCSP [A10G]` — result for “normalised enrichment score”: 0.282.
`PPHRRMLLFACSP [R6M]` — result for “normalised enrichment score”: 0.754.
Under “normalised enrichment score”, `PPHRRRLLFRCSP [A10R]` is recorded as 0.391.
`PPHRRGLLFACSP [R6G]`: “normalised enrichment score” -0.277.
`PPHRRILLFACSP [R6I]` — result for “normalised enrichment score”: -0.0961.
For `PPHRRRLLFAISP [C11I]`, “normalised enrichment score” read 0.558.
`PPHRRRLLMACSP [F9M]` — result for “normalised enrichment score”: -0.156.
Under “normalised enrichment score”, `PPHRRRLLFAMSP [C11M]` is recorded as 0.0776.
For `PPHRRRLLFACSC [P13C]`, “normalised enrichment score” read 0.539.
`PGHRRRLLFACSP [P2G]`: “normalised enrichment score” 0.497.
Under “normalised enrichment score”, `PFHRRRLLFACSP [P2F]` is recorded as 0.306.
Under “normalised enrichment score”, `PPHRRCLLFACSP [R6C]` is recorded as -0.161.
Under “normalised enrichment score”, `PPHRRRLLFACKP [S12K]` is recorded as 0.145.
For `PPHRRRLLFCCSP [A10C]`, “normalised enrichment score” read -0.123.
For `PPHRRRLLFANSP [C11N]`, “normalised enrichment score” read -0.448.
For `PYHRRRLLFACSP [P2Y]`, “normalised enrichment score” read 0.215.
For `PPHRRRLLFFCSP [A10F]`, “normalised enrichment score” read 0.567.
`PPTRRRLLFACSP [H3T]`: “normalised enrichment score” 0.0807.

Study 2 — technique: DHFR PCA, deep sequencing; sample: yeast; with: (+)-ABA 58 µM; baseline: wild-type fitted maximum; direction: higher = stronger binding
Target: ABI1, truncated, D143A, DHFR fusion (Arabidopsis thaliana)
Notes: methotrexate growth selection, single substitutions
Parent: PYL1, truncated, DHFR fusion (Arabidopsis thaliana); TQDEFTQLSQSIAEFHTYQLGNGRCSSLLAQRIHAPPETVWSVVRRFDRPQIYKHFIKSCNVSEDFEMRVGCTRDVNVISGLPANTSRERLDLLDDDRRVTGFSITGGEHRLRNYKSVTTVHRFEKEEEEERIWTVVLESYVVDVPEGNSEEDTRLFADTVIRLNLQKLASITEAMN
`L94H`: “relative binding score” 87.8%.
For `S59R`, “relative binding score” read 77.1%.
Under “relative binding score”, `R111M` is recorded as 63%.
`V161I`: “relative binding score” 94.1%.
For `T101A`, “relative binding score” read 69.5%.
`A158H` — result for “relative binding score”: 25.5%.
`T154V` — result for “relative binding score”: 85.1%.
For `D92P`, “relative binding score” read -14%.
For `E89S`, “relative binding score” read 5.73%.
Under “relative binding score”, `L112Q` is recorded as 6.17%.
`D159Y`: “relative binding score” 10.7%.
`E147M` — result for “relative binding score”: 79.4%.
Under “relative binding score”, `E64Y` is recorded as 74.1%.
`V145A`: “relative binding score” 46.9%.
For `V100N`, “relative binding score” read 4.61%.
`D97F`: “relative binding score” 86.7%.
For `D92C`, “relative binding score” read 41.3%.
`F66R`: “relative binding score” 74.2%.
For `L138H`, “relative binding score” read 34.6%.
`S27Y` — result for “relative binding score”: 18.8%.
For `T6N`, “relative binding score” read 89.7%.
`E125S` — result for “relative binding score”: 93.8%.

Study 3 — technique: RNA Bind-n-Seq; form: RNA; sample: in vitro; concentration: 365 nM; baseline: no-protein control; direction: higher = stronger binding
Target: RNA binding protein fox-1 homolog 2, RRM domain, GST-SBP tag (RBFOX2, Homo sapiens, UniProt O43251-10, residues 100-194)
Notes: natural RNA segment, single round, ends assumed
Construct (chain): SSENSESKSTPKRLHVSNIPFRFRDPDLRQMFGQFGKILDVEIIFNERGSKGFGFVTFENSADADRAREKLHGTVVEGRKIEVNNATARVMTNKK
`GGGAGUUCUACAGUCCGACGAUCUCAACACAGCCCACAGCCCAUUUUACAGAAACCAAAACUGAGUUCUAACAGGAGGAGUGAUUUGCCCAGGGUUUUUAGCCCUCUCUGGUACAGAACUGGGAUGUGAACAUUGGAAUUCUCGGGUGCCAA` — result for “RBNS enrichment (R)”: 0.454.
For `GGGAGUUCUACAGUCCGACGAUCCACCUCCUUGCCUUUCAGUAAAUGGCCACGAUGUGACUAUUUGUUGAGGUUUCCAGCCUCUUCCAAGACCUUGCCAGGCUGAGUGGGGCCUGAGAGCUUGCAGGCACUUAUGGAAUUCUCGGGUGCCAA`, “RBNS enrichment (R)” read 0.377.
For `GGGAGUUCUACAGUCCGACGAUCUCUUGUAAAUUUUUAGAAGACCUCACAGAACUUUACAGUUUAUUUUUCUCGGCCAACACAUUAAAACCAUUCUUGGAUUUCAAGUAGCCAACUUUGCCUUUUAUGUAUUCUGGAAUUCUCGGGUGCCAA`, “RBNS enrichment (R)” read 0.361.
Under “RBNS enrichment (R)”, `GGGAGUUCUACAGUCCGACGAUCCUGGGACACAGAUCCUUGUCUUCAGCACCUUCCAAGGAGCCAACUUUUAUUCCCUUUCCUCUCUCCCCUCCCCACCUCGCUUCUUCCCAAUUUAGUAACUUAGAUGCUUCUGGAAUUCUCGGGUGCCAA` is recorded as 1.24.
Under “RBNS enrichment (R)”, `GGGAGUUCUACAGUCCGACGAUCCACACAUAGCCUAGAGCUCAGUUUUAGUUUAACAUUGUGAAAAUAUUAAAAGAAUCUUGUAACUUUAUUCUUUUUUUUCUCCUGCUGAAACAAAUUAAACCAAUCAUAUGUGGAAUUCUCGGGUGCCAA` is recorded as 0.636.
`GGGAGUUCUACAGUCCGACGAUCAGGAGAGCCUGUCUUGUUGGUGGGACCCUAAUUACCCCUGAGCCUCUCGGGAAUGCUUUUCCAGCAGGGAGCUCUUCCCCUGAAGGAGACUAGCUUGCCUUGGUUUUGAUUGGAAUUCUCGGGUGCCAA`: “RBNS enrichment (R)” 0.786.
`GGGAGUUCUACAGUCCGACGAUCAGGAGGCAGCUCUCCCCACACAGCAGCACAGCCAUCACAGGAUUCCUUGUGUAGAAAUGAUUCCCAGUCUAGUUACCAACAGCUAGUCUAGGAGUAAUUGAAUGGCCCUAUGGAAUUCUCGGGUGCCAA` — result for “RBNS enrichment (R)”: 0.297.
`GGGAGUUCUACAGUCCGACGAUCACUGUGCUCAGCUUUGAAAAGAACAAAGAUUUAUACCUCUGUACAUGUGGAUAGAUAGAAGUGUCCUGUUUUGAUACUAAUUUUGAAAGUUGAUUAUCUUCUCUUGAUAUUGGAAUUCUCGGGUGCCAA` — result for “RBNS enrichment (R)”: 0.386.
`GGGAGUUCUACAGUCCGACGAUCCACGGUUUGCUGAUCUCAAACGGGCACUUAAAGCCUGGUAUGGGUGUGUGAUUUAGUGACUGAGCCUGCCCUUCUGUUUGUCAGUUACGUUUCUACCCUUCAAUUAGCUGUGGAAUUCUCGGGUGCCAA`: “RBNS enrichment (R)” 3.08.
Under “RBNS enrichment (R)”, `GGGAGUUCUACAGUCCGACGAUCACACAGGUAUUAAAUAUAUCGCUCUAUAUAAUAUUAUAUAUGUGUGUGGUAUCCAAGGAAUCACUUUUAUGAGGGCUAAAGAUAAAGAAUUUGGCCAGAAAAUGCAGCCAUGGAAUUCUCGGGUGCCAA` is recorded as 0.91.
Under “RBNS enrichment (R)”, `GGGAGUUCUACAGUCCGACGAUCGAGACUCCUCAGAUGUGGGAACUCUGGUUCUUUCCGUGCUGUGUUCUGGAGAGAUCUCACGUGGAUGGUACCGGUGCUCUGAGCACCACAGAUGUGAGCUACAGUUCGUUUGGAAUUCUCGGGUGCCAA` is recorded as 0.392.
`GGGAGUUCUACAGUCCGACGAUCUGGGUCAGGGGCUCAGUAUGAGAAGAAGAAAUAUGAACAGCAAAUAAAACAUUUUUGUAUAAGCUCAUGCGUGUUUCUUUUCCCCAGCCCCAGCUCUGGCUUAUGUACCUUGGAAUUCUCGGGUGCCAA` — result for “RBNS enrichment (R)”: 0.284.

Study 4 — technique: RNA Bind-n-Seq; form: RNA; sample: in vitro; concentration: 200 nM; notes: whole 134-nt RNA, ends assumed; with: 150 mM LiCl; baseline: input library; direction: higher = stronger binding; each molecule: 7-deaza-guanosine replaces G
Target: Ras GTPase-activating protein-binding protein 1, full length (G3BP1, Homo sapiens, UniProt Q13283)
UniProt Q13283, sequence (whole entry, looked up): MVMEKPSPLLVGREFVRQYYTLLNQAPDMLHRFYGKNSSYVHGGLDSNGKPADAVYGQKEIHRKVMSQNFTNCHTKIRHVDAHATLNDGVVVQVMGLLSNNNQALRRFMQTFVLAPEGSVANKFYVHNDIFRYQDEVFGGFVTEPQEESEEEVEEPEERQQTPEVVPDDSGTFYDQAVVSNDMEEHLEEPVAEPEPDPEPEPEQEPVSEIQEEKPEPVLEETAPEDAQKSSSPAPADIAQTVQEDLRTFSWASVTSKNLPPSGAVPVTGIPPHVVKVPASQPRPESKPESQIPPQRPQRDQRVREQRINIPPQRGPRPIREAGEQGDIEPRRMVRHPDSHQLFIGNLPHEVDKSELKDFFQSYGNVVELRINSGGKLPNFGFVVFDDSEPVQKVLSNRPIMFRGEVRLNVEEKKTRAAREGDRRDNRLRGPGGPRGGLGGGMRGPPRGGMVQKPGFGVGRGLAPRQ
With `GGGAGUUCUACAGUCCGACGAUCUAACUUUAGAUGAGGAUCUGAUGGAUAUGGCAGUGGACGUGGAUUUGGGGAUGGCUAUAAUGGGUAUGGAGGAGGACCUGGAGGUGGCAAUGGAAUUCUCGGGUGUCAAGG` the log2 enrichment was -0.178.
For `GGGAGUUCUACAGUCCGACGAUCUAACUUUAGAGGAGGAUCUGAUGGAUAUGGCAGUGGACGUGGAUUUGGGGCUGGCUAUAAUGGGUAUGGAGGAGGACCUGGAGGUGGCAAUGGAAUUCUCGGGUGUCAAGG`, the log2 enrichment was 0.0422.
With `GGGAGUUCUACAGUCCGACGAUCAGUCCUGUGCUACACAUCGUAUGUACCGAAUCGGGGAAAGGGGUGGGGAAAAAGGGGAAAGUAUUAUGUUACGCCGUUCGGAUCUGCACUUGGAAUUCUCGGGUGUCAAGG` the log2 enrichment was 0.205.
`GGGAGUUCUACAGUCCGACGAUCUCGCCCUGGUGGCAUGCGGGGAGGAAGAGGUGGCCUCAUGGAUCGUGGUGGUCCCGGUGGAAUGUUCAGAGGUGGCCGUGGUGGAGACAGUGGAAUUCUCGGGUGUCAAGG` gave a log2 enrichment of 0.517.
`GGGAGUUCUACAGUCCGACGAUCAAGUCCUGUGCUACACAUCGUAUGUACCGAAUCGGAAAAAAAGGUUUUUGGAAAGGAAAGUAUUAUGUUACGCCGUUCGGAUCUGCACUUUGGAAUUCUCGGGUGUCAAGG` has a log2 enrichment of -2.24.
For `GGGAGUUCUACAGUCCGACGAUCGCCGGAAGUAAAAACAAAUGGAAAUGCUUCGGAUAGUGGCAGGGGUGGGGGUUGCUAAGGAAAGGGUGGGAUGGGAGUGGGUAAAGAGUUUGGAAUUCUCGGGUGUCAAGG`, the log2 enrichment was -0.306.
`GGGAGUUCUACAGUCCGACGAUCCAAGUCCUGUGCUACACAUCGUAUGUACCGAAUCGGGGAAAGGAAAGGGAAAGGGGAAAGUAUUAUGUUACGCCGUUCGGAUCUGCACUUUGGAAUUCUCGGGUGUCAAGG` gave a log2 enrichment of -0.611.
For `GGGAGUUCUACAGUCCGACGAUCCUGUGCUACACAUCGUAUGUACCGAAUCGGUUUUUUUGGGGUUUUUUUGGGUUUUUUUGGGAAAGUAUUAUGUUACGCCGUUCGGAUCUGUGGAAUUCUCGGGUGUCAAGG`, the log2 enrichment was 1.2.
For `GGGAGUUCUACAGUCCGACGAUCUGUUUAAUAAACGUGAAGAUGUCUCGCAGUCCUGAUGCGAAGGAAGACCCUGUGGAGUGCCCUCUUUGCAUGGAGCCCUUGGAGAUAGAUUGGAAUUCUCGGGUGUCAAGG`, the log2 enrichment was -1.48.
For `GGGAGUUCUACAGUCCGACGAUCUCAAGUCCUGUGCUACACAUCGUAUGUACCGAAUCGGGAAAGGGAAAGGGAGGGAAAGUAUUAUGUUACGCCGUUCGGAUCUGCACUUCCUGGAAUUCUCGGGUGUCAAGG`, the log2 enrichment was -0.0741.
`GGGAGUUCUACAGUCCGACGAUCCCUGUGCUACACAUCGUAUGUACCGAAUCGGAAAAAAGGGGAAAAAAGGGGAAAAAAGGGAAAGUAUUAUGUUACGCCGUUCGGAUCUGCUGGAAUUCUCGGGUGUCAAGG` gave a log2 enrichment of 0.109.

For quick reference, copied from above (study 1):
`PPHRRRHLFACSP [L7H]` — result for “normalised enrichment score”: -0.11.
Under “normalised enrichment score”, `PPHRRRLLFRCSP [A10R]` is recorded as 0.391.
`PPTRRRLLFACSP [H3T]`: “normalised enrichment score” 0.0807.
`PPIRRRLLFACSP [H3I]`: “normalised enrichment score” 0.0965.
Under “normalised enrichment score”, `PPHRRRLLFACKP [S12K]` is recorded as 0.145.
For `PPHRRRLLFACSC [P13C]`, “normalised enrichment score” read 0.539.
`PPHMRRLLFACSP [R4M]`: “normalised enrichment score” -0.0195.
For `PPHRRRLLFCCSP [A10C]`, “normalised enrichment score” read -0.123.
`PPHRMRLLFACSP [R5M]`: “normalised enrichment score” 0.767.
For `PYHRRRLLFACSP [P2Y]`, “normalised enrichment score” read 0.215.
